Assay results of several laboratories.
A part holds a random share of what one study measured. Positions count from the first letter of the parent shown.

Sample 1
Target: Interferon regulatory factor 7, full length, phosphomimetic (IRF7, Homo sapiens, UniProt Q92985, residues 1-503, S471D/S472D/S475D/S476D/S477D/S483D/S484D/S487D)
Technique: protein-binding microarray
Form: double-stranded DNA, one strand shown
Matrix: in vitro
Tested at: 2200 nM top
Setting: 60-bp whole probe
Together with: salmon DNA 0.4 mg/ml
Baseline: random background probes
Reading: higher = stronger binding
All sequences stand within: GCCTAGCAC … GTCTTGATTCGCTTGACGCTGCTG
Construct (chain): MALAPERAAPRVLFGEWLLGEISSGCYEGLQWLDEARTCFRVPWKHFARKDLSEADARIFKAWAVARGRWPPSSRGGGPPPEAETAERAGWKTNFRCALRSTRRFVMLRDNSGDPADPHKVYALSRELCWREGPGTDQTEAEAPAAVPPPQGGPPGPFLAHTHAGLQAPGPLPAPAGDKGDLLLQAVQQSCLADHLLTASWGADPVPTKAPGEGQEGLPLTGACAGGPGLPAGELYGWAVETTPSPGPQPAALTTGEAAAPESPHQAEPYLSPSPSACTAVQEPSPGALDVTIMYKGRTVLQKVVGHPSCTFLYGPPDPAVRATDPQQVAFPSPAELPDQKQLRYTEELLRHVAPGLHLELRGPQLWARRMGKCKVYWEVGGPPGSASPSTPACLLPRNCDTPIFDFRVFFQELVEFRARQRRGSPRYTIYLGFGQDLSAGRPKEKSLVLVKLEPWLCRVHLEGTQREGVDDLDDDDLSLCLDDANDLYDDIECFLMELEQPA
`TTAGATTTCAGCCTGGATTAGTGCTAG` — result for “fitted relative affinity”: -0.0327 z-score.
For `TTAGGTATCGACTATTGGTTAGTGCTA`, “fitted relative affinity” read -0.0105 z-score.
For `TCTAATATTCATTTTATTCAGTGCTAG`, “fitted relative affinity” read 1.17 z-score.
Under “fitted relative affinity”, `TTAGGACTGCATATCCTTTAGTGCTAG` is recorded as -0.0313 z-score.
For `TTAGGTTTCGGGTTTCGGTTCGTGCTA`, “fitted relative affinity” read 13.7 z-score.
`TTAGGTATCCTACTTCTTTAGTGCTAG`: “fitted relative affinity” 0.731 z-score.
`ATTTTTTTTAGTGGATGAAAGTGCTAG` — result for “fitted relative affinity”: 0.334 z-score.
For `GCACTTTTCCCCCTAGTTGTGTGCTAG`, “fitted relative affinity” read 2.75 z-score.

Sample 2
Target: ABI1, truncated, D143A, DHFR fusion (Arabidopsis thaliana, UniProt P49597)
Technique: DHFR PCA, dose-response
Matrix: yeast
Setting: Hill fit, mean, not affinity
Together with: (+)-ABA, dose series
Reading: lower = more sensitive
Starting sequence: PYL1, truncated, DHFR fusion (Arabidopsis thaliana, UniProt Q8VZS8); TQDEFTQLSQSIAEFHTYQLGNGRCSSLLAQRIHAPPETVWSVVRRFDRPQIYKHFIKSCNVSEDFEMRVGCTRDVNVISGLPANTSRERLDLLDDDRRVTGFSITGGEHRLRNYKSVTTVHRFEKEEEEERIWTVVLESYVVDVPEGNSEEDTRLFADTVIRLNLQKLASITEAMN
`R46A` gave an ABA EC50 of 3.42 µM.
The ABA EC50 of `E174G` is reported as 19.1 µM.
`D3F` has an ABA EC50 of 9.36 µM.
`R132H` gave an ABA EC50 of 1.09 µM.
`R24V` has an ABA EC50 of 2.76 µM.
`A30Y` has an ABA EC50 of 2.22 µM.
`R88K` gave an ABA EC50 of 1.98 µM.
The ABA EC50 of `E109L` is reported as 21 µM.

Sample 3
Target: Sal-like protein 4, full length isoform A (SALL4, Homo sapiens, UniProt Q9UJQ4, residues 1-1053)
Sequence of UniProt Q9UJQ4 (whole entry, looked up): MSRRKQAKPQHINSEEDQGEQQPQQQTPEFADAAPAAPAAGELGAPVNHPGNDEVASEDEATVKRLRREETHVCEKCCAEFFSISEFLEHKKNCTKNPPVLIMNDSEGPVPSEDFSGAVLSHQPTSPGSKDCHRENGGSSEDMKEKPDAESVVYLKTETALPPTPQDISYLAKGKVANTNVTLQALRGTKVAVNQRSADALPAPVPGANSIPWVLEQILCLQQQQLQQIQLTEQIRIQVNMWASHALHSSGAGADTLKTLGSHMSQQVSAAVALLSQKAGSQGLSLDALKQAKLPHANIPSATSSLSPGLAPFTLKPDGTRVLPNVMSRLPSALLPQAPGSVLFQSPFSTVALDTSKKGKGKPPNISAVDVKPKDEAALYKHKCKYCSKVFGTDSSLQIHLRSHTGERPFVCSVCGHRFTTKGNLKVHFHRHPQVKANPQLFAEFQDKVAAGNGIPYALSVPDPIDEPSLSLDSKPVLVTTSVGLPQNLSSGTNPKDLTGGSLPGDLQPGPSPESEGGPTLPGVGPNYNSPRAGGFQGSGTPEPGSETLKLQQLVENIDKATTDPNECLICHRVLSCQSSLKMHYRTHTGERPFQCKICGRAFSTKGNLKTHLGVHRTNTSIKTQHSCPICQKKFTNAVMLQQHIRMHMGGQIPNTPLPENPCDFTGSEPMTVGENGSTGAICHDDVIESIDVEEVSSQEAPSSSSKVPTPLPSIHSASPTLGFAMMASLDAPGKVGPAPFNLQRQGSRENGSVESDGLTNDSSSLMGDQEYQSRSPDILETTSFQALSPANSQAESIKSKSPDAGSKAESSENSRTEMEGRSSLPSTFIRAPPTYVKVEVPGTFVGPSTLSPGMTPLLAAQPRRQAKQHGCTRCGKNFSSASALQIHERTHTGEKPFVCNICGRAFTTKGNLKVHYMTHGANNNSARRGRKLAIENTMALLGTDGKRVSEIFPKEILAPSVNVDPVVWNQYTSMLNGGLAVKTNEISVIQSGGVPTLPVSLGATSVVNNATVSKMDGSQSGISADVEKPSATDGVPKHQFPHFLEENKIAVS
Technique: universal PBM
Form: double-stranded DNA, one strand shown
Matrix: in vitro
Tested at: 600 nM
Setting: 8-mer, flanks averaged, mean of replicates
Reading: higher = stronger binding
For `CGAATTCG`, the E-score was -0.0797.
`ATAGTAAA` gave an E-score of 0.293.
The E-score of `ATCTTGCA` is reported as 0.247.
For `ACCGCTGA`, the E-score was -0.0391.
`CGTATAGA` gave an E-score of 0.146.
For `CAACCTGA`, the E-score was 0.0508.
`ATTCGCAA` gave an E-score of 0.21.
The E-score of `AGTATACG` is reported as 0.17.

Other studies, line by line
Starting sequence: viral docking peptide; KGVKRKLFAEDSS; partner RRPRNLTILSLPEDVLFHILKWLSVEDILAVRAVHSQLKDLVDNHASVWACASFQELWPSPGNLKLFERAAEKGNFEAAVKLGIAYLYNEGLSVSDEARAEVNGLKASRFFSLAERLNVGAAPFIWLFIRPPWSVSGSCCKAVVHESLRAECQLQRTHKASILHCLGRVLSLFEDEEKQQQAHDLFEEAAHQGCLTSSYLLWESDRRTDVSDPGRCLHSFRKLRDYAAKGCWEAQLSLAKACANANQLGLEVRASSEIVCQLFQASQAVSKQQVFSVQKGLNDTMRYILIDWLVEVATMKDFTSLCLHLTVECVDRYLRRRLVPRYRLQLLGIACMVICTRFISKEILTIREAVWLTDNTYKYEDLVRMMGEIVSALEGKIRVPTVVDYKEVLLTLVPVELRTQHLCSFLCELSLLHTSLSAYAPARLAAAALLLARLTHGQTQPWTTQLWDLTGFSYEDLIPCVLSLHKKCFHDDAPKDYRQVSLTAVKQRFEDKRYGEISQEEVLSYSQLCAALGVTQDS
`KGVKRKLFAEKSS [D11K]` — result for “normalised enrichment score”: 7.64 (CCNF, cyclin fold, Cln2 fusion (human); yeast growth competition, sequencing; yeast; strong parent motif; baseline: not given, higher = stronger binding).

Excerpt of the above (sample 3):
The E-score of `ATCTTGCA` is reported as 0.247.
`CGTATAGA` gave an E-score of 0.146.
For `CGAATTCG`, the E-score was -0.0797.
